Measured values pooled from the literature.
Numbered parts are unrelated; each lists some results of a single study.
Sequence of UniProt P42680 (whole entry, looked up): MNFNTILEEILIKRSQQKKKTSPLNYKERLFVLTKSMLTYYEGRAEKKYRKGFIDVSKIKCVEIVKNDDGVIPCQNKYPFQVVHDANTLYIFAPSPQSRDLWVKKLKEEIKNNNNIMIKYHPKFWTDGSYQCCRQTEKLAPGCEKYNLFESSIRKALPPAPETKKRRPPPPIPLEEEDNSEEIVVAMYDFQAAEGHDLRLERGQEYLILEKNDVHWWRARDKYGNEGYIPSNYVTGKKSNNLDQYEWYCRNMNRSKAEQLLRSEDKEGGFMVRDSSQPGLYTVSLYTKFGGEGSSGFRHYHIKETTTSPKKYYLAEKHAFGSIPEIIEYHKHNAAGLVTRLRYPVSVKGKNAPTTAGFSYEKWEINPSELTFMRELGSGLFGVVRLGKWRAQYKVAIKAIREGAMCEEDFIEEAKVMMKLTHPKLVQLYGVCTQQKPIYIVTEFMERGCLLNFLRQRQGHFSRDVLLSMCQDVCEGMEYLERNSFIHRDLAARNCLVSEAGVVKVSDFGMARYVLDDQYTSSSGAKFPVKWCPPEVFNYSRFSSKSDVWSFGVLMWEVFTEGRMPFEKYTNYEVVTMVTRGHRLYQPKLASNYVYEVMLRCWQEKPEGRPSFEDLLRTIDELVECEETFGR
Sequence of UniProt Q9UM73 (whole entry, looked up): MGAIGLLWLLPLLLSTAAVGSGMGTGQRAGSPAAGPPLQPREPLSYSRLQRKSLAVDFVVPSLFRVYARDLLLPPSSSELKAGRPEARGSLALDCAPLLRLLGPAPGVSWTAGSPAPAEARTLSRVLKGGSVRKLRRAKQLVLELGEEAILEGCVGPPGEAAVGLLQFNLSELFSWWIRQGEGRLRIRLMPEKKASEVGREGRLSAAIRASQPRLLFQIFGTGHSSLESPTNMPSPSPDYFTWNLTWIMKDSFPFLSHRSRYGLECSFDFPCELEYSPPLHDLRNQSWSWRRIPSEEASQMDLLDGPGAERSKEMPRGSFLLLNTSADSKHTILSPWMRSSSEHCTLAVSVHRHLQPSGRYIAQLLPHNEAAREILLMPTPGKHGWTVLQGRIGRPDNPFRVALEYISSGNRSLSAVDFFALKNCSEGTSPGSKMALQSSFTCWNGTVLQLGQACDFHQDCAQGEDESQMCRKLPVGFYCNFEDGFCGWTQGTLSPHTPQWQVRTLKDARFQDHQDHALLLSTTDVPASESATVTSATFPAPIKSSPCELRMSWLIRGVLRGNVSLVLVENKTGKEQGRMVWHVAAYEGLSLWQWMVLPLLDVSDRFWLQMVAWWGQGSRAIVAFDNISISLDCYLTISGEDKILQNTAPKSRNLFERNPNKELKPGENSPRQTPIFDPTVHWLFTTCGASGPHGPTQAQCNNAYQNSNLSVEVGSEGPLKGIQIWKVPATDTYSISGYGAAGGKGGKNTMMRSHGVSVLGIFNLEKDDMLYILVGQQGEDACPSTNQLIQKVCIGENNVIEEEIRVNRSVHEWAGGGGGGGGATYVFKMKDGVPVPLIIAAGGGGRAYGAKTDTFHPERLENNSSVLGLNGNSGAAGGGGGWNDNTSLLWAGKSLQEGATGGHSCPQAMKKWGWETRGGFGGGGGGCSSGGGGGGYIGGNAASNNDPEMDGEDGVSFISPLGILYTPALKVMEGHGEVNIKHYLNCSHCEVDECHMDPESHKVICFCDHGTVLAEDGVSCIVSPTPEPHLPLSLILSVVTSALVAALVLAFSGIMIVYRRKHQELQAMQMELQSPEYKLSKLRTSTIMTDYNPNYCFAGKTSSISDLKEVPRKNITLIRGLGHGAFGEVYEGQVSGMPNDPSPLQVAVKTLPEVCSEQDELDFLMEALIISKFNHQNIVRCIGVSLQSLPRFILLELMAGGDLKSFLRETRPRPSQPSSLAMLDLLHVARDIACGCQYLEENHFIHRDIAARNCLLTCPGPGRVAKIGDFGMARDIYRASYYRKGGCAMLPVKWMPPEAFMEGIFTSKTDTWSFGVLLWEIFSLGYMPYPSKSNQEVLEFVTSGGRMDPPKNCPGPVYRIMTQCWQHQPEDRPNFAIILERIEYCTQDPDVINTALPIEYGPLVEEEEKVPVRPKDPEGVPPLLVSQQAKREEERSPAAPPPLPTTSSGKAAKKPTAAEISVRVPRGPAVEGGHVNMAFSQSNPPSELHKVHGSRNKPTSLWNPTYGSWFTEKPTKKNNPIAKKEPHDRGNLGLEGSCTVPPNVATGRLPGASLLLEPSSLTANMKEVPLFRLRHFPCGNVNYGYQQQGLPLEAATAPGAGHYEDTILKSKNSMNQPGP
Sequence of UniProt O14757 (whole entry, looked up): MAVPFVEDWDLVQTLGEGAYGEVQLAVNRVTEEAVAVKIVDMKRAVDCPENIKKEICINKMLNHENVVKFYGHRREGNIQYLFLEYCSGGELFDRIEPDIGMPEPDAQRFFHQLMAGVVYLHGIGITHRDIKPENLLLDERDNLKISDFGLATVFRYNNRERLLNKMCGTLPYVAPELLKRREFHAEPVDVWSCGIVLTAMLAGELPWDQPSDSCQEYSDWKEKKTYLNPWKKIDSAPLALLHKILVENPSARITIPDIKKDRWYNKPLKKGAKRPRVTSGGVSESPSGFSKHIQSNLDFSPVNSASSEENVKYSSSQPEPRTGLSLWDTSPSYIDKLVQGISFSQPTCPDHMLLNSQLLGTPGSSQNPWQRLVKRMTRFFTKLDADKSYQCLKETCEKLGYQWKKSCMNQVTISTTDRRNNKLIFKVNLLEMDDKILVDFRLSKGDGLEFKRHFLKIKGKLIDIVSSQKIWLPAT
Sequence of UniProt Q7L7X3 (whole entry, looked up): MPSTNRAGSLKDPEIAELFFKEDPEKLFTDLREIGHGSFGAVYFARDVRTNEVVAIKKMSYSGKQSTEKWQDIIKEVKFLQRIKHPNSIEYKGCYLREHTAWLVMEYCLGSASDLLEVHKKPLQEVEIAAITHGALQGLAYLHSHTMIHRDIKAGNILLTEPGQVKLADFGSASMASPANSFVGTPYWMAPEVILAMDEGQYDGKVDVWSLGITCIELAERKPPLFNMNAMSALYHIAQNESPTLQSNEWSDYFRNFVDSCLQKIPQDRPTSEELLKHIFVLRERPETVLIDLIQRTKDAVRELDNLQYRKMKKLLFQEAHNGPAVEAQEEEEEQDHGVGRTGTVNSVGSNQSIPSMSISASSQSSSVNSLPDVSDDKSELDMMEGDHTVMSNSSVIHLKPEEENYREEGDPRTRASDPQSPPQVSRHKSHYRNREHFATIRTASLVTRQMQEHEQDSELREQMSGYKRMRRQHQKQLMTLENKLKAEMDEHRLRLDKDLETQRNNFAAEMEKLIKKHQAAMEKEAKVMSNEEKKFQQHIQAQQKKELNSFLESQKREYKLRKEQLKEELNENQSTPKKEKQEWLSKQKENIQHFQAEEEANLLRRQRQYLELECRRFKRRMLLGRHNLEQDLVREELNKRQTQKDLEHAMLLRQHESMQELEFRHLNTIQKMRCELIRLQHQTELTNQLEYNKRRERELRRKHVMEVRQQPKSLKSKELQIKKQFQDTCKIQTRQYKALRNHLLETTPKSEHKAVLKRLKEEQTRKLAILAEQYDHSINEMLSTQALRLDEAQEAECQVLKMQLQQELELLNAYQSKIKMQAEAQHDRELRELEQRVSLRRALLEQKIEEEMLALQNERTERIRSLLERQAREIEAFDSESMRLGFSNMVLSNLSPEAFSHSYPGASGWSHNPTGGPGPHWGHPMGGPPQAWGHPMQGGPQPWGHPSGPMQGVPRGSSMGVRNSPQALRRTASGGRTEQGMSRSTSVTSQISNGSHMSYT
Sequence of UniProt P00519 (whole entry, unmodified, looked up): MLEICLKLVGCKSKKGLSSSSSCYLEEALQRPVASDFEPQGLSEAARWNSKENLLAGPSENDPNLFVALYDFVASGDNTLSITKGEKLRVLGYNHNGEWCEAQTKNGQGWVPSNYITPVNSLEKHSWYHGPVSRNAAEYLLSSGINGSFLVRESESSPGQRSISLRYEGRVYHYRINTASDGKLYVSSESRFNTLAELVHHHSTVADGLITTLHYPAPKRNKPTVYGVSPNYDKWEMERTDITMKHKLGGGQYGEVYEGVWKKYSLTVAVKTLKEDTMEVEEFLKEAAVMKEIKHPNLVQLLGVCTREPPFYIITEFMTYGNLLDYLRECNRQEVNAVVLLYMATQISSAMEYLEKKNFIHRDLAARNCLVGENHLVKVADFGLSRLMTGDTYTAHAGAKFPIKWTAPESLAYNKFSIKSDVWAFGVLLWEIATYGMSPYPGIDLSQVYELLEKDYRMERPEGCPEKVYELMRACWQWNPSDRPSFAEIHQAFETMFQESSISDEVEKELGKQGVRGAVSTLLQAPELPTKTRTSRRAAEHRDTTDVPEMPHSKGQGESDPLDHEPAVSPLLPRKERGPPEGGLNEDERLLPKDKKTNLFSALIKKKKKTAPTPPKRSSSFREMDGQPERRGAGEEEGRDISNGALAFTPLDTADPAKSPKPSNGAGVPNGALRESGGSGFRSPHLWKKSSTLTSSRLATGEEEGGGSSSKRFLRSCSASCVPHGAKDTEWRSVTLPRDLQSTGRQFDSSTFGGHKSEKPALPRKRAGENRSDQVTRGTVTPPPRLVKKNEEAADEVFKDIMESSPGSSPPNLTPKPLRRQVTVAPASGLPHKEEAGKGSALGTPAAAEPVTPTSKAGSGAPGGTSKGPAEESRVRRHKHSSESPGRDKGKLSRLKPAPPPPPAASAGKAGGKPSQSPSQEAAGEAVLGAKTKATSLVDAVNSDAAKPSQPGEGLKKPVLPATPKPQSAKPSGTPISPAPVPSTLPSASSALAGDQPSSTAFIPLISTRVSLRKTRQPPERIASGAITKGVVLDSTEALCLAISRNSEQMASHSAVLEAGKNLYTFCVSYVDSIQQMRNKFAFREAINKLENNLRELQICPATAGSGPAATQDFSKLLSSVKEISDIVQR

Block 1
Target: Histone acetyltransferase KAT6A, both winged helices, GST fusion (KAT6A, Homo sapiens, UniProt Q92794, residues 1-181)
Method: protein binding microarray
Molecule type: double-stranded DNA, one strand shown
Matrix: in vitro
Concentration: not given
Setting: 8-mer, flanks averaged, mean of 2 arrays, mostly near background
Reference: not given
Direction: higher = stronger binding
Residues (chain): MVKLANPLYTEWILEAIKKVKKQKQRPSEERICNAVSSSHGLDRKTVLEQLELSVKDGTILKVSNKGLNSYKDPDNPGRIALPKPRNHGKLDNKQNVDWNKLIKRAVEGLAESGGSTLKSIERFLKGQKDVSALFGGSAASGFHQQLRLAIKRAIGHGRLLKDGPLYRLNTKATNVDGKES
| Oligonucleotide | E-score |
| --- | --- |
| ACAAAAGC | -0.0363 |
| CTTCTCCA | -0.1 |
| TAGGTTCA | -0.113 |
| CAGCGGGG | 0.173 |
| CTGATCAC | -0.0895 |
| CCGCCGAG | 0.257 |
| ACAGGGGG | -0.172 |
| CACGAAGC | 0.0289 |

Block 2
Organism: Sarcocystis neurona
Read-out: parasite growth
Concentration: 10 µM
Setting: secondary screen
| SMILES | inhibition |
| --- | --- |
| C[C@@H]1C[C@H]2[C@@H]3CCC4=CC(=O)C=C[C@]4(C)[C@@]3(F)[C@@H](O)C[C@]2(C)[C@H]1C(=O)CO | 2.7% |
| COC(=O)C1=C(C)NC(C)=C(C(=O)O[C@@H]2CCCN(Cc3ccccc3)C2)[C@@H]1c1cccc([N+](=O)[O-])c1.Cl (racemic) | 8.4% |
| CC(=O)Oc1ccccc1C(=O)Nc1ncc([N+](=O)[O-])s1 | -137% |
| C=C1/C(=C\C=C2/CCC[C@]3(C)[C@@H]([C@H](C)/C=C/[C@@H](O)C4CC4)CC[C@@H]23)C[C@@H](O)C[C@@H]1O | -28.1% |

Block 3
SMILES: CC(=O)N[C@@H](Cc1c[nH]c2ccccc12)C(=O)N[C@@H](CCC(=O)C=[N+]=[N-])C(=O)OC(C)C
Matrix: EL4 tumour
Dose: dose not given
Reference: vehicle
| assay | system | log2 fold change |
| --- | --- | --- |
| measured: N2-acetyllysine | mouse, EL4 tumour-bearing | -1.08 |
| measured: pyridoxamine phosphate | Mus musculus | -0.473 |
| measured: putrescine | mouse, EL4 tumour-bearing | 0.101 |
| measured: citrulline | mouse, EL4 tumour-bearing | -0.788 |

Block 4
Species: human
Matrix: microsomes or S9
Concentration: 2 µM
Time: 0.5 h
| Structure (SMILES) | remaining compound |
| --- | --- |
| c1cnc2c(C3NCCc4c3[nH]c3ccccc43)cccc2c1 (centres unmarked) | 101% |
| O=C(c1scc2c1OCCO2)N1CCCCCC1 | 55.2% |
| CS(=O)(=O)C1=C(N)C(=O)N(c2ccccc2)C1c1ccccc1 (centres unmarked) | 8.09% |
| Cc1coc(C)c1C(=O)CC1(O)C(=O)Nc2cc(Cl)cc(Cl)c21 (centres unmarked) | 88% |

Block 5
SMILES: CS(=O)(=O)N1CCCC(NC(=O)[C@H](CCC2CCCCC2)NC(=O)c2ccc(CNc3ncnc4c3nnn4-c3ccccc3)cc2)C1 (some centres unmarked)
Method: competition with immobilised ligand
Concentration: 0.1 µM
| target | assay | remaining binding [%] |
| --- | --- | --- |
| Glycogen synthase kinase-3 beta (GSK3B, Homo sapiens, UniProt P49841) | cell-free assay | 100 |
| Serine/threonine-protein kinase Chk1 (CHEK1, Homo sapiens, UniProt O14757) | cell-free assay | 100 |
| Activin receptor type-1B (ACVR1B, Homo sapiens, UniProt P36896) | cell-free assay | 94 |
| NUAK family SNF1-like kinase 2 (NUAK2, Homo sapiens, UniProt Q9H093) | cell-free assay | 100 |
| Tyrosine-protein kinase ABL1, non-phosphorylated (ABL1, Homo sapiens, UniProt P00519, F317I) | binding | 88 |
| BDNF/NT-3 growth factors receptor (NTRK2, Homo sapiens, UniProt Q16620) | cell-free assay | 100 |
| Activin receptor type-1 (ACVR1, Homo sapiens, UniProt Q04771) | cell-free assay | 88 |
| Mast/stem cell growth factor receptor Kit (KIT, Homo sapiens, UniProt P10721) | cell-free assay | 89 |
| Ephrin type-A receptor 5 (EPHA5, Homo sapiens, UniProt P54756) | cell-free assay | 96 |
| Serine/threonine-protein kinase TAO1 (TAOK1, Homo sapiens, UniProt Q7L7X3) | cell-free assay | 100 |
| Mitogen-activated protein kinase 14 (MAPK14, Homo sapiens, UniProt Q16539) | cell-free assay | 100 |
| ALK tyrosine kinase receptor (ALK, Homo sapiens, UniProt Q9UM73) | cell-free assay | 100 |
| Serine/threonine-protein kinase 3 (STK3, Homo sapiens, UniProt Q13188) | cell-free assay | 95 |
| Tyrosine-protein kinase Tec (TEC, Homo sapiens, UniProt P42680) | binding | 100 |

Other studies, line by line
| SMILES | cell line | conditions | quantity | value |
| --- | --- | --- | --- | --- |
| CO/N=C(\C(=O)N[C@@H]1C(=O)N2C(C(=O)O)=C(C[N+]3(C)CCCC3)CS[C@H]12)c1csc(N)n1 | A-375 | 100 µM, 60 h | viability | 103% |

A few entries again (block 2):
| SMILES | inhibition |
| --- | --- |
| COC(=O)C1=C(C)NC(C)=C(C(=O)O[C@@H]2CCCN(Cc3ccccc3)C2)[C@@H]1c1cccc([N+](=O)[O-])c1.Cl (racemic) | 8.4% |
| C=C1/C(=C\C=C2/CCC[C@]3(C)[C@@H]([C@H](C)/C=C/[C@@H](O)C4CC4)CC[C@@H]23)C[C@@H](O)C[C@@H]1O | -28.1% |
| CC(=O)Oc1ccccc1C(=O)Nc1ncc([N+](=O)[O-])s1 | -137% |
| C[C@@H]1C[C@H]2[C@@H]3CCC4=CC(=O)C=C[C@]4(C)[C@@]3(F)[C@@H](O)C[C@]2(C)[C@H]1C(=O)CO | 2.7% |
